Earlier results, collected from citations in different studies.
Protocols differ between the studies behind these lines. ± marks the error that the study gave.
Sequence of UniProt Q9JLB5 (whole entry, looked up): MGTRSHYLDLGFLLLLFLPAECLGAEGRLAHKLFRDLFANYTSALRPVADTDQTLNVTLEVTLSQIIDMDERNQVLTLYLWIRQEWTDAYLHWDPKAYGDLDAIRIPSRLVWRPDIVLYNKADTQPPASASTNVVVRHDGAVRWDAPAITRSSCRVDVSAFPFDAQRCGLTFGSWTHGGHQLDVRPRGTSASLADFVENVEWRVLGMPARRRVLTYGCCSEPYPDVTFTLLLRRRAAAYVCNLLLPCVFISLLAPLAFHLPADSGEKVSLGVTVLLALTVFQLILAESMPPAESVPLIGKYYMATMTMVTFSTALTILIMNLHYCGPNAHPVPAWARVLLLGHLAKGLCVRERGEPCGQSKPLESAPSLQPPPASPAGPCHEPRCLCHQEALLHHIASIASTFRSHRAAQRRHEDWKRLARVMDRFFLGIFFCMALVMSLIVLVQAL
Sequence of UniProt P43144 (whole entry, looked up): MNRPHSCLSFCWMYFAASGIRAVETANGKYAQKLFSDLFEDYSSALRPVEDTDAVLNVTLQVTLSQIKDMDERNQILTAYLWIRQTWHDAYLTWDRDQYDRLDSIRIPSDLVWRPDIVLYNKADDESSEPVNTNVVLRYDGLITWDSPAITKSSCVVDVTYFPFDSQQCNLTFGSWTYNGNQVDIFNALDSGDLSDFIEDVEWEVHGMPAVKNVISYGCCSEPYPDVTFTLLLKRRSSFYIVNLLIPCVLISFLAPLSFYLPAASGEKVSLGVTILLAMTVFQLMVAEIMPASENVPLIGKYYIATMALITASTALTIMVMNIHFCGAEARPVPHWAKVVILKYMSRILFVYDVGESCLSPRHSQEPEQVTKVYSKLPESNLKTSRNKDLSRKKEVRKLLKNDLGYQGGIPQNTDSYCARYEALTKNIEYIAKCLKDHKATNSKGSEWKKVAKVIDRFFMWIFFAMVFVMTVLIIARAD

Under MDR1 inhibition, `O=S1OCC2C(CO1)C1(Cl)C(Cl)=C(Cl)C2(Cl)C1(Cl)Cl` (centres unmarked) is recorded as “inhibited” (MDR1, human; B16/F10 overexpressing human MDR1; micromolar).
The LD50 of `C[n+]1cc2c3c(ccc2c2ccc4cc5c(cc4c21)OCO5)OCO3` is reported as 18 mg/kg (mouse; intraperitoneal).
For `CN1CCc2[nH]c3ccccc3c2CC1.O=C(O)/C=C/C(=O)O`, the Hill coefficient was 2.3 ± 0.2 (Nicotinic acetylcholine receptor alpha9/alpha10 (Rattus norvegicus, UniProt P43144+Q9JLB5); inhibitor; with: 10 µM acetylcholine).
`NC(=O)OC[C@H](N)Cc1ccccc1` has a Ki of 3700 nM (norepinephrine transporter).
Under “log2 fold change”, `OCCN1CCN(CCC=C2c3ccccc3Sc3ccc(C(F)(F)F)cc32)CC1` is recorded as 1.02 (MCF7; microarray, measured: SLC38A7 mRNA; concentration not given; relative to: DMSO).
`CC1(C(=O)O)C2CCC(O2)C1(C)C(=O)O` (centres unmarked) has an IC50 of 53 nM (PP1 and PP2A; phosphatase activity, inhibitor).
For `CC1(C)[C@@H](O)CC[C@]2(C)[C@H]3C(=O)C=C4[C@@H]5C[C@@](C)(C(=O)O)CC[C@]5(C)CC[C@@]4(C)[C@]3(C)CC[C@@H]12`, the IC50 was roughly 2000 nM (vascular smooth muscle cells; gap junction coupling).
The ED50 of `CN[C@@H](C)C(=O)c1ccccc1` is reported as 0.11 mg/kg (stimulus generalization; rat trained on S(-)-methcathinone).

A few entries again:
For `CC1(C)[C@@H](O)CC[C@]2(C)[C@H]3C(=O)C=C4[C@@H]5C[C@@](C)(C(=O)O)CC[C@]5(C)CC[C@@]4(C)[C@]3(C)CC[C@@H]12`, the IC50 was roughly 2000 nM (vascular smooth muscle cells; gap junction coupling).
